Measured values gathered from unrelated publications.
Lines come from different studies, so protocols differ. Several values in a cell are separate wells, animals, samples, runs or records. Numbers after ± are the reported error.
UniProt Q9UM07, sequence (whole entry, looked up): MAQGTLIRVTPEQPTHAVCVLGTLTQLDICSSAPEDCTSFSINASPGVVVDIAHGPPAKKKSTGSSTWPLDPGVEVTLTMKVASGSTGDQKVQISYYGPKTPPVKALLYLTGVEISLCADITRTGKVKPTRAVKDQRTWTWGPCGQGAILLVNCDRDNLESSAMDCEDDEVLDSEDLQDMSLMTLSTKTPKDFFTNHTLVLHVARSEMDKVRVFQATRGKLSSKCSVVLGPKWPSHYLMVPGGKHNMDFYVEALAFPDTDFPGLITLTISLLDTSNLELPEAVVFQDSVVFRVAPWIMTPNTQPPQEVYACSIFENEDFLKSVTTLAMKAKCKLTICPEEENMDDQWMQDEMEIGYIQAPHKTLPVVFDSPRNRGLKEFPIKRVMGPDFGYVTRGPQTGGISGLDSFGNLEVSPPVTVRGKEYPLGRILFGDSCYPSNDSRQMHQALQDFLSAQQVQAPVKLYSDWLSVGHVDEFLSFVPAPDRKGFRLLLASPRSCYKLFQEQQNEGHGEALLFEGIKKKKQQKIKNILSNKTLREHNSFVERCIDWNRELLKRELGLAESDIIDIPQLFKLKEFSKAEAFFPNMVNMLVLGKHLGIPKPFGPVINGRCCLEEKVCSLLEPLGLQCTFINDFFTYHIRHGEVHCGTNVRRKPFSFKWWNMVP
UniProt P80192, sequence (whole entry, looked up): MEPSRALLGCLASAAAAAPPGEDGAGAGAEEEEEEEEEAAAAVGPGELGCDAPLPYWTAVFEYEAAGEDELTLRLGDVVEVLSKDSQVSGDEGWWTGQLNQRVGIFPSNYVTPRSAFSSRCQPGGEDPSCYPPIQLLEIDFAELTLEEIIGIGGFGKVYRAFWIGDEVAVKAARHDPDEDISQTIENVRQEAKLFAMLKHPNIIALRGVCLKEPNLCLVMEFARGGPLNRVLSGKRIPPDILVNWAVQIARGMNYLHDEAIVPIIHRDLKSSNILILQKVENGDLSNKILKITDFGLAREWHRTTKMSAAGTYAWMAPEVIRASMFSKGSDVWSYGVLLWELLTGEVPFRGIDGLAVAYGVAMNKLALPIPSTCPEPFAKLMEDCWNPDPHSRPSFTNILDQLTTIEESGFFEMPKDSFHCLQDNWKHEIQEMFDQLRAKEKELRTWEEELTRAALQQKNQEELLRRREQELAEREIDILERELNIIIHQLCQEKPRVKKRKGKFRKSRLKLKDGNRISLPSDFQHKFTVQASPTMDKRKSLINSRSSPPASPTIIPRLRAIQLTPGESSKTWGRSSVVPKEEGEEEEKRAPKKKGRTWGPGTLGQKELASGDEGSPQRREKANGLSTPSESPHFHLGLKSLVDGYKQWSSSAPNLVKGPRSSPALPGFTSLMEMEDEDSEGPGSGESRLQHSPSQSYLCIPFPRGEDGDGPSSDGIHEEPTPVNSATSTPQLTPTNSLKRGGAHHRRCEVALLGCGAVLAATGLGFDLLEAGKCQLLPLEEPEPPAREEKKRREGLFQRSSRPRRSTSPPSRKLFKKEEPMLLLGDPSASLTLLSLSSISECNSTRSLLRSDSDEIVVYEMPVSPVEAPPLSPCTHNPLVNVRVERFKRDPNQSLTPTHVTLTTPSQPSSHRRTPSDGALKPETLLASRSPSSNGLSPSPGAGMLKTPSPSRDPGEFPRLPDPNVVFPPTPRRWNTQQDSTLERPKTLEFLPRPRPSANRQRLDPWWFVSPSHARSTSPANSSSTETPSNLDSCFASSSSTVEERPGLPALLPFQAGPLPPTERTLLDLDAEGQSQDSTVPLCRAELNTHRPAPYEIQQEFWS
UniProt P42680, sequence (whole entry, looked up): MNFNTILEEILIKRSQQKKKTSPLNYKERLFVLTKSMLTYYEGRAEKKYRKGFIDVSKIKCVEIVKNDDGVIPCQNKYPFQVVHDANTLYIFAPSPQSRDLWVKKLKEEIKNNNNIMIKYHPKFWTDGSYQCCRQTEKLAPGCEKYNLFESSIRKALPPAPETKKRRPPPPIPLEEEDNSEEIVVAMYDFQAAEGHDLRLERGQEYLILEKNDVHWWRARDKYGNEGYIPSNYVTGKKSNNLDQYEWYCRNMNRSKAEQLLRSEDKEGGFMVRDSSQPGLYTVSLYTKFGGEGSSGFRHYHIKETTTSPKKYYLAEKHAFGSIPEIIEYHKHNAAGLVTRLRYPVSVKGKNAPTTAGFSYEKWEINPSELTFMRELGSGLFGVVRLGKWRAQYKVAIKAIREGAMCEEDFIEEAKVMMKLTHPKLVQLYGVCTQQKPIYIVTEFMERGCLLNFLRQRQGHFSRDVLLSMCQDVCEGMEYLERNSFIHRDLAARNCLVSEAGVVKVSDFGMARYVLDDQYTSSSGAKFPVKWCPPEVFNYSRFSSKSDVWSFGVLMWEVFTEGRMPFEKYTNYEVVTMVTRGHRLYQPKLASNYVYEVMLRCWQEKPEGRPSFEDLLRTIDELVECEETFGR
UniProt Q9HCP0, sequence (whole entry, looked up): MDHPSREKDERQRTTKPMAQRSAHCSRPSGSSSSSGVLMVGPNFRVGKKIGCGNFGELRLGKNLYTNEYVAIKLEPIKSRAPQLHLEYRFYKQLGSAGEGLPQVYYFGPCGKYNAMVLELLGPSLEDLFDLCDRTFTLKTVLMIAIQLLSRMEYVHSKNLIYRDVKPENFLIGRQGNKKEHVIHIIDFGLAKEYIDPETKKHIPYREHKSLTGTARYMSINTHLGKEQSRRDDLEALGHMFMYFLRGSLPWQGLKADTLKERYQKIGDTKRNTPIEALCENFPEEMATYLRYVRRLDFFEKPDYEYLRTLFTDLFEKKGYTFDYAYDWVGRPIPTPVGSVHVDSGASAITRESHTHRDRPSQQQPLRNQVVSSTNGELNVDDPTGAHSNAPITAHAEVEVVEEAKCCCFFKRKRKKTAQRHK
UniProt Q08881, sequence (whole entry, looked up): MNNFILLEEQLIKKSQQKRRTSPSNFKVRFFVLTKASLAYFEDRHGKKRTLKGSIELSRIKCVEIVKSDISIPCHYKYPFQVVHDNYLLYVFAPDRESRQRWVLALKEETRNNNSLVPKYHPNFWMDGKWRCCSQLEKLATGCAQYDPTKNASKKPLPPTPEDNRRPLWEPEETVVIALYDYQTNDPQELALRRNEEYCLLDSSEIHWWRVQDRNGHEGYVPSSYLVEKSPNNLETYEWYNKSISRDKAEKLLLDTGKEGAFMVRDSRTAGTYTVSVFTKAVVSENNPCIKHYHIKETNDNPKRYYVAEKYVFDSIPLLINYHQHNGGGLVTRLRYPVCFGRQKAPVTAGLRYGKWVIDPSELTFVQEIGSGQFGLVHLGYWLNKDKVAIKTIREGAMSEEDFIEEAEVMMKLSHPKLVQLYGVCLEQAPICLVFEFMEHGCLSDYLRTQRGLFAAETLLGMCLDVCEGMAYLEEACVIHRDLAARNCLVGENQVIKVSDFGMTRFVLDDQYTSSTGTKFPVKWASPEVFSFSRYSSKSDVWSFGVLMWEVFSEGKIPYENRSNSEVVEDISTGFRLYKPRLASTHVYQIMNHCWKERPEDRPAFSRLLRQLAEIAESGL
UniProt P28223, sequence (whole entry, looked up): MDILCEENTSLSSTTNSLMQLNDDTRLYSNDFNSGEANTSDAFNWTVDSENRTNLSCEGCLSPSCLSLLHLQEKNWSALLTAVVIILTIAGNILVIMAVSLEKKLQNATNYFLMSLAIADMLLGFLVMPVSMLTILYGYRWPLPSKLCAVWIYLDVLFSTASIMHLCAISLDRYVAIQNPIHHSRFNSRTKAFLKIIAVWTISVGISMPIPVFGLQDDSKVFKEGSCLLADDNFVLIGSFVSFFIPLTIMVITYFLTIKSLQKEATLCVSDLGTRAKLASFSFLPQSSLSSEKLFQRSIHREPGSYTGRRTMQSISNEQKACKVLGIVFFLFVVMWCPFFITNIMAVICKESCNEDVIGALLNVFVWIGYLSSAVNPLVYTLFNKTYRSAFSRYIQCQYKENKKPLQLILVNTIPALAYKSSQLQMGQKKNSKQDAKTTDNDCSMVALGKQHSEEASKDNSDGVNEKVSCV
UniProt Q8VEB4, sequence (whole entry, looked up): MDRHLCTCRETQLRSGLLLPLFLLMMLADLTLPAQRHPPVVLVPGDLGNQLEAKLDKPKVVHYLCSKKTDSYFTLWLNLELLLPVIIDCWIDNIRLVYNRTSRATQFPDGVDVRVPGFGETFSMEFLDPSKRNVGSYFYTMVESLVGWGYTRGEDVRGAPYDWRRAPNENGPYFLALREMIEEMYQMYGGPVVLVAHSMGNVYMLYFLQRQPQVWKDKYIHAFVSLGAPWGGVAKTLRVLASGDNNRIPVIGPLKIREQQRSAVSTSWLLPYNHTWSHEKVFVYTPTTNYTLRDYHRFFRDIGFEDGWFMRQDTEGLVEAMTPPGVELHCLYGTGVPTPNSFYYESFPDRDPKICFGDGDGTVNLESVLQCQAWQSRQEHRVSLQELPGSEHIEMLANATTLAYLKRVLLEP

Compound | target or system | test | test system | setting | how to read | measurement | result
CN(C)[C@H]1C[C@@]23CC[C@@]4(O2)C(=CC[C@]2(C)[C@@H](c5ccc6ccncc6c5)CC[C@H]24)C=C3[C@@H](O)[C@@H]1O | TEC (Homo sapiens, UniProt P42680) | ATP probe labelling, inhibitor, KiNativ profiling | – | 0.1 µM | – | inhibition | 8.8%
C#CCN(Cc1ccc2nc(C)[nH]c(=O)c2c1)c1ccc(C(=O)N[C@H](CCC(=O)OC)C(=O)OC)cc1 | Mycobacterium tuberculosis | bacterial growth, inhibitor | H37Rv pptT conditional knockdown | PptT depleted, ATc withheld | – | MIC90 | > 100 µM
Nc1ccc(/C=C/C(=O)N2CCc3c(oc4c(-c5ccc(F)cc5)cc(-c5ccc(C(=O)N6CCC(F)(F)CC6)cn5)cc34)C2)cn1 | MAP3K9 (Homo sapiens, UniProt P80192) | binding, competition with immobilised ligand | – | 1 µM | – | remaining binding | 95%
CCOc1ccc(CNCCc2ccc3c(c2)OCO3)cc1 | Trypanosoma cruzi | reporter mRNA translation, inhibitor, item: capped polyadenylated Renilla luciferase mRNA | cell-free extract | concentration not given | relative to: control RNA | relative translation | 104%
CS(C)(=O)=Nc1ccc(-c2ccc(-c3nc4cc(O[C@@H]5CO[C@H]6[C@@H]5OC[C@H]6O)[nH]c4cc3F)cc2)cc1 | ITK (Homo sapiens, UniProt Q08881) | enzyme activity, inhibitor | – | 10 µM | – | inhibition | 8%
CCCn1ncc(CN2CCCC(C(=O)c3cccc(OC)c3)C2)c1C (centres unmarked) | Trypanosoma cruzi | reporter mRNA translation, inhibitor, item: Renilla luciferase mRNA | cell-free extract | concentration not given, test 1 | relative to: positive over negative control | translation activity | 128% and 109%
CC(C)CC(O)(CC(C)C)c1cn(C(=O)N2CCCC2)nn1 | Lysosomal phospholipase A and acyltransferase (Pla2g15, Mus musculus, UniProt Q8VEB4) | probe labelling, inhibitor, item: Lypla3 | mouse, brain | i.p., 0.8 mg/kg, 4 h, protein level | relative to: treated over vehicle mice, lower = stronger inhibition | activity ratio-of-ratios | 1.92
CC(C)C[C@H](NC(=O)[C@H](CC(C)C)NC(=O)[C@H](CCCCN)NC(=O)[C@H](Cc1ccccc1)NC(=O)[C@@H](NC(=O)[C@H](CCCNC(=N)N)NC(=O)[C@@H](N)CCCCN)C(C)C)C(=O)N[C@@H](CCCCN)C(=O)N[C@@H](CCCNC(=N)N)C(=O)N[C@@H](Cc1ccc(O)cc1)C(=O)N[C@@H](Cc1c[nH]c2ccccc12)C(=O)N[C@@H](CCCNC(=N)N)C(=O)N[C@@H](CCC(N)=O)C(=O)N[C@@H](CC(C)C)C(=O)N[C@@H](CCCCN)C(=O)N[C@@H](CCCCN)C(=O)N1CCC[C@H]1C(=O)N[C@H](C(=O)N[C@@H](CCCNC(=N)N)C(=O)NCCOCCOCC(=O)O)C(C)C | Staphylococcus aureus | gel retardation | genomic DNA | – | – | complete DNA binding concentration | ≥ 16 µM
CC(C)[C@H]1NC(=O)C[C@H]2/C=C/CCSSC[C@@H](NC1=O)C(=O)N[C@H](Cc1cccc3ccccc13)C(=O)NCC(=O)O2 | CSNK1G1 (Homo sapiens, UniProt Q9HCP0) | enzyme activity, inhibitor | – | 10 µM | – | inhibition | 1.5%
N[C@H](C(=O)N1CCCC1)C1CCN(c2nccc3c(-c4ncc(Cl)cc4Cl)cccc23)CC1 | PADI4 (Homo sapiens, UniProt Q9UM07) | thermal shift | – | 0.03013 µM | – | melting temperature | 53.3 °C and 53.4 °C
O=C1NC(=O)c2c1c1cc(F)c[n+]3c1c1c2c2cc(O)ccc2[n]1[Ru-4]312([N]=C=S)[S+]3CC[S+]1CC[S+]2CC3 (centres unmarked) | ABL1 (Homo sapiens, UniProt P00519, T315I) | enzyme activity | – | 100 nM, human enzyme, with: 10 µM ATP | relative to: untreated | remaining activity | 103%
Cc1sc2c(c1C)C(c1ccc(Cl)cc1)=NC(CC(=O)OC(C)(C)C)c1nnc(C)n1-2 (centres unmarked) | HTR2A (Homo sapiens, UniProt P28223) | ligand displacement, radioligand | – | 1 µM | – | inhibition | 24%
Cc1ccsc1C(=O)C1CCCN(Cc2cnc(N3CCCC3)s2)C1 (centres unmarked) | Trypanosoma cruzi | reporter mRNA translation, inhibitor, item: capped polyadenylated Renilla luciferase mRNA | cell-free extract | concentration not given | relative to: control RNA | relative translation | 117%
O=C1NC2(CC2)COc2ncc(F)cc2[C@H]2COCCN2c2ccn3ncc1c3n2 | – | – | Sprague-Dawley rat, male, adrenals | oral, 20 mg/kg/day, 4 weeks dosing, end of recovery | – | organ-to-body weight ratio | 0.014 ± 0.002%

A few entries again:
Compound | target or system | test | test system | setting | how to read | measurement | result
Nc1ccc(/C=C/C(=O)N2CCc3c(oc4c(-c5ccc(F)cc5)cc(-c5ccc(C(=O)N6CCC(F)(F)CC6)cn5)cc34)C2)cn1 | MAP3K9 (Homo sapiens, UniProt P80192) | binding, competition with immobilised ligand | – | 1 µM | – | remaining binding | 95%
